Published values of several laboratories.
Numbers after ± are the reported error.

For `CSCC[C@H](NC(=O)CCCCCNC(=S)Nc1ccc2c(c1)C(=O)OC21c2ccc(O)cc2Oc2cc(O)ccc21)C(=O)N[C@@H](C)C(=O)N[C@@H](CC(N)=O)C(=O)N[C@@H](CC(C)C)C(=O)NCC(=O)N[C@@H](Cc1ccc(O)cc1)C(=O)N[C@@H](Cc1c[nH]c2ccccc12)C(=O)N[C@@H](CC(C)C)C(=O)N[C@@H](CC(C)C)C(=O)N[C@@H](C)C(=O)N[C@@H](CC(C)C)C(=O)N[C@@H](Cc1ccccc1)C(=O)N[C@H](C(=O)N[C@H](C(=O)N[C@@H](Cc1ccc(O)cc1)C(=O)N[C@@H](Cc1c[nH]c2ccccc12)C(=O)N[C@H](C(=O)N[C@@H](CC(=O)O)C(=O)N[C@@H](CC(C)C)C(=O)NCC(=O)N[C@@H](CC(C)C)C(=O)N[C@H](C(=O)N[C@@H](CCCCN)C(=O)N[C@@H](CCCCN)C(=O)N[C@@H](CCCNC(=N)N)C(=O)N1CCC[C@H]1C(=O)N[C@@H](CCCCN)C(=O)N1CCC[C@H]1C(=O)O)C(C)C)[C@@H](C)O)[C@@H](C)O)C(C)C`, “cells with internalized peptide” read 30.5% (human PBMCs; imaging flow cytometry, FITC-labelled; 1 µM, 30 min; baseline: CD19+ B cells).
The viability of `O=c1c(NCc2ccc(O)cc2)c(NC2CCN(Cc3ccccc3)CC2)c1=O` is reported as 103 ± 2.01% (SH-SY5Y; MTT; 6.25 µM, 24 h).
`CC[C@H](C)[C@H](NC(=O)[C@H](CCC(=O)O)NC(=O)CNC(=O)[C@@H](NC(=O)[C@H](CC(C)C)NC(=O)[C@H](CC(C)C)NC(=O)[C@H](CC(C)C)NC(=O)[C@H](CC(C)C)NC(=O)[C@H](CS)NC(=O)[C@H](CO)NC(=O)[C@H](Cc1ccccc1)NC(=O)CNC(=O)[C@H](CCCNC(=N)N)NC(=O)[C@@H]1CCCN1C(=O)[C@H](C)NC(=O)[C@H](CCSC)NC(=O)CNC(=O)CNC(=O)[C@H](Cc1ccccc1)NC(=O)[C@H](CCCCN)NC(=O)[C@H](Cc1c(C)cc(O)cc1C)NC(=O)[C@H](N)CCCNC(=N)N)[C@@H](C)O)C(=O)N[C@@H](CC(=O)O)C(=O)N[C@@H](CC(C)C)C(=O)N1CCC[C@H]1C(=O)N[C@H](C(=O)N[C@@H](CCCCN)C(=O)N[C@@H](CCCNC(=N)N)C(=O)N[C@@H](CCCNC(=N)N)C(=O)N[C@@H](C)C(N)=O)C(C)C` has a hemolysis of under 0.86% (mouse erythrocytes; below 1 µM, 1 h, 37 °C).
`CC(C)C[C@H](NC(=O)[C@H](CCCCN)NC(=O)[C@H](CC(C)C)NC(=O)[C@H](CC(C)C)NC(=O)[C@H](CCCCN)NC(=O)[C@H](CCCCN)NC(=O)[C@H](CC(C)C)NC(=O)[C@H](CC(C)C)NC(=O)[C@H](CCCCN)NC(=O)[C@H](CC(C)C)NC(=O)[C@H](CC(C)C)NC(=O)[C@H](CCCCN)NC(=O)[C@H](CCCCN)NC(=O)[C@H](CC(C)C)NC(=O)[C@@H](N)CSSC[C@H](N)C(=O)N[C@@H](CC(C)C)C(=O)N[C@@H](Cc1c[nH]cn1)C(=O)N[C@@H](CCC(=O)O)C(=O)N[C@@H](CC(C)C)C(=O)N[C@@H](CC(C)C)C(=O)N[C@@H](CCC(=O)O)C(=O)N[C@@H](Cc1c[nH]cn1)C(=O)N[C@@H](CC(C)C)C(=O)N[C@@H](Cc1c[nH]cn1)C(=O)N[C@@H](CCC(=O)O)C(=O)N[C@@H](CC(C)C)C(=O)N[C@@H](CC(C)C)C(=O)N[C@@H](CCC(=O)O)C(=O)N[C@@H](Cc1c[nH]cn1)C(N)=O)C(N)=O` gave an HC10 of about 85.5 µM (mouse erythrocytes; hemolysis; 1 h, 37 °C).
With `CC(C)C[C@@H](NC(=O)CCNc1ccc([N+](=O)[O-])c2nonc12)C(=O)N[C@H](CC(C)C)C(=O)N[C@H](CC(C)C)C(=O)N[C@H](CC(C)C)C(=O)N[C@H](Cc1ccc(OP(=O)(O)O)cc1)C(=O)O` the nuclear concentration was 1680 ± 18 µM (SJSA-1; 200 µM, 4 h).
`Nc1ccc(Nc2c(NC3CCN(Cc4ccccc4)CC3)c(=O)c2=O)cc1` has a viability of 104.1 ± 0.52% (SH-SY5Y; MTT; 6.25 µM, 24 h).
The IC50 of `CC(C)=CCC[C@@](C)(O)[C@H]1CC[C@]2(C)[C@@H]1CC[C@@H]1[C@@]3(C)CCC(=O)C(C)(C)[C@@H]3CC[C@]12C` is reported as 34.1 µM (HEK293-A; cell growth or viability, SRB).
Under cytotoxicity, `O=C(COc1ccccc1P(=O)(O)O)NCC(F)(F)c1ccccc1` is recorded as “not toxic” (INS1; concentration not given, low glucose).
With `CC(C)C[C@H](NC(=O)[C@H](CCCCN)NC(=O)[C@H](CC(C)C)NC(=O)[C@H](CC(C)C)NC(=O)[C@H](CCCCN)NC(=O)[C@H](CCCCN)NC(=O)[C@H](CC(C)C)NC(=O)[C@H](CC(C)C)NC(=O)[C@H](CCCCN)NC(=O)[C@H](CC(C)C)NC(=O)[C@H](CC(C)C)NC(=O)[C@H](CCCCN)NC(=O)[C@H](CCCCN)NC(=O)[C@H](CC(C)C)NC(=O)[C@@H](N)CSSC[C@H](N)C(=O)N[C@@H](CC(C)C)C(=O)N[C@@H](CCC(=O)O)C(=O)N[C@@H](CCC(=O)O)C(=O)N[C@@H](CC(C)C)C(=O)N[C@@H](CC(C)C)C(=O)N[C@@H](Cc1c[nH]cn1)C(=O)N[C@@H](Cc1c[nH]cn1)C(=O)N[C@@H](CC(C)C)C(=O)N[C@@H](CCC(=O)O)C(=O)N[C@@H](CCC(=O)O)C(=O)N[C@@H](CC(C)C)C(=O)N[C@@H](CC(C)C)C(=O)N[C@@H](Cc1c[nH]cn1)C(=O)N[C@@H](Cc1c[nH]cn1)C(N)=O)C(N)=O` the HC10 was about 172 µM (mouse erythrocytes; hemolysis; 1 h, 37 °C).
For `Cc1ccc(CCNc2c(NC3CCN(Cc4ccccc4)CC3)c(=O)c2=O)cc1`, the viability was 101 ± 2.64% (SH-SY5Y; MTT; 12.5 µM, 24 h).
For `Cc1c(C)c(C)[c-](C)c1C.Fc1c[c-]c(-c2ccccn2)cc1.[Cl-].[Ir+3]`, “iridium share in fraction” read 9.8% (A2780; ICP-MS, item: iridium in cytoskeletal fraction; IC50).
For `CC1(C)CC([n+]2cc([NH-])on2)CC(C)(C)N1O`, the EC50 was 53.5 µM (human trabecular meshwork cells; cytotoxicity, CellTiter; serum-free medium; 24 h).
Under “concentration in medium”, `O=C(CCC(=O)OCCNC(=O)[C@@H](Cc1ccccc1)NC(=O)[C@@H](Cc1ccccc1)NC(=O)Cc1ccc2ccccc2c1)NCCS(=O)(=O)O` is recorded as 16 µM (SK-OV-3; LC-MS; culture medium; 20 µM, 4 h).
With `CCc1ccc(Nc2c(NC3CCN(Cc4ccccc4)CC3)c(=O)c2=O)cc1` the viability was 67.6 ± 2.11% (SH-SY5Y; MTT; 12.5 µM, 24 h).
For `CCCCCCCCCCCCCCCC(=O)OCC(CSC[C@H](N)C(=O)N[C@@H](CO)C(=O)N[C@@H](CCCCN)C(=O)N[C@@H](CCCCN)C(=O)N[C@@H](CCCCN)C(=O)N[C@@H](CCCCN)C(=O)NCCCCCC(=O)N[C@@H](CCCCN)C(=O)N[C@@H](CC(C)C)C(=O)N[C@H](C(=O)N[C@@H](Cc1ccccc1)C(=O)N[C@@H](Cc1ccccc1)C(=O)N[C@@H](Cc1ccc2ccccc2c1)C(=O)O)C(C)C)OC(=O)CCCCCCCCCCCCCCC` (some centres unmarked), mRNA level read “increased” (BV-2; RT-qPCR, item: Tnf; 1.0 µM).
`CCn1c(NN)nc2cc3ccccc3cc2c1=O`: “maximum non-toxic concentration” 55 µg/mL (BGM; morphology and trypan blue; 72 h).
With `O=C(CCCC[C@@H]1SC[C@@H]2NC(=O)N[C@@H]21)NCCCC[C@@H](NC(=O)[C@@H](Cc1ccccc1)NC(=O)[C@@H](Cc1ccccc1)NC(=O)Cc1ccc2ccccc2c1)C(=O)N[C@H](Cc1ccc(OP(=O)(O)O)cc1)C(=O)O` the conversion was 19.2% (HS5; dephosphorylation, item: D1-B; 3 h).
With `CC=C(C)C(=O)OC1C(O)C2OC(COC(=O)CCC(=O)CCCCCCC(CCCCC)OC3OC(C)C(O)C(O)C3O2)C1OC(=O)C=Cc1ccccc1` (centres unmarked) the IC50 was 0.139 µM (Jurkat; cytotoxicity).
`O=c1c(NCCc2ccc(Br)cc2)c(NC2CCN(Cc3ccccc3)CC2)c1=O` gave a viability of 107.3 ± 0.59% (SH-SY5Y; MTT; 6.25 µM, 24 h).
The LD50 of `CC1N=C(c2ccccc2F)c2cc(Nc3ccccc3C(F)(F)F)ccc2NC1=O` (centres unmarked) is reported as 69 ± 42 µM (HEK293T; cytotoxicity, CellTiter-Glo; 18 h).
The viability of `O=c1c(Nc2ccc(Br)cc2)c(NC2CCN(Cc3ccccc3)CC2)c1=O` is reported as 96.09 ± 0.57% (SH-SY5Y; MTT; 12.5 µM, 24 h).
`CCn1c(SCCCN2C(=O)c3ccccc3C2=O)nc2cc3ccccc3cc2c1=O` — result for “maximum non-toxic concentration”: 25 µg/mL (BGM; morphology and trypan blue; 72 h).
`CC(=O)N[C@@H](Cc1c[nH]cn1)C(=O)N[C@@H](CCCNC(=N)N)C(=O)N[C@@H](CCCNC(=N)N)C(=O)N[C@@H](CCCNC(=N)N)C(=O)N[C@@H](CCCNC(=N)N)C(=O)N[C@@H](CCCNC(=N)N)C(=O)N[C@@H](CCCNC(=N)N)C(=O)N[C@@H](CCCNC(=N)N)C(=O)N[C@@H](CCCNC(=N)N)C(=O)N[C@@H](Cc1c[nH]cn1)C(N)=O` gave a hemolysis of about 100% (mouse erythrocytes; up to 250 µM).
For `Cc1ccc(Nc2c(NC3CCN(Cc4ccccc4)CC3)c(=O)c2=O)cc1`, the viability was 99.8 ± 1.43% (SH-SY5Y; MTT; 6.25 µM, 24 h).
`COc1cccc(CSc2nc3cc4ccccc4cc3c(=O)n2C)c1` — result for “maximum non-toxic concentration”: 50 µg/mL (BGM; morphology and trypan blue; 72 h).
Under “highest non-toxic concentration”, `CC[C@H](C)[C@H](NC(=O)[C@H](CCC(N)=O)NC(=O)[C@@H](NC(=O)[C@@H]1CCCN1[C@@H]1CN(C(=O)[C@H](CCCCN)NC(=O)[C@H](CC(N)=O)NC(=O)[C@@H](NC(=O)[C@@H](NC(=O)[C@H](CCC(N)=O)NC(=O)[C@@H](N)C(C)C)[C@@H](C)CC)[C@@H](C)CC)CC[C@H]1NS(=O)(=O)c1ccc(C)cc1)C(C)C)C(=O)N[C@H](C(=O)N[C@@H](Cc1ccc(O)cc1)C(=O)N[C@@H](CCCCN)C(N)=O)C(C)C` is recorded as at least 100 µM (PC-12 (neuronally differentiated); LDH release; 20 h).
`CCn1c(SCc2cccc(OC)c2)nc2cc3ccccc3cc2c1=O` — result for “maximum non-toxic concentration”: 55 µg/mL (BGM; morphology and trypan blue; 72 h).
`C[C@@H](O)[C@H](NC(=O)[C@@H]1CCCN1C(=O)CNC(=O)[C@@H]1CC(=O)NCC(=O)N[C@H]2Cc3cn(c4ccccc34)-c3cc(ccc3O)C[C@H](NC2=O)C(=O)NCC(=O)N[C@@H](CO)C(=O)N[C@@H](CCC(N)=O)C(=O)N[C@@H](Cc2c[nH]c3ccccc23)C(=O)N1)C(=O)NCC(=O)N[C@@H](CCC(N)=O)C(=O)N[C@@H](CCCNC(=N)N)C(=O)N[C@@H](CC(=O)O)C(=O)O`: activity “inactive” (NCI60 panel; cell growth; concentration not given, single high dose).
The IC50 of `CC1C(=NOCc2cc(-c3ccc(Cl)cc3)no2)C(C)C(c2ccc(Cl)cc2)OC1c1ccc(Cl)cc1` (centres unmarked) is reported as 476 µg/mL (human PBMC; cytotoxicity, MTT).

A few entries again:
The IC50 of `CC(C)=CCC[C@@](C)(O)[C@H]1CC[C@]2(C)[C@@H]1CC[C@@H]1[C@@]3(C)CCC(=O)C(C)(C)[C@@H]3CC[C@]12C` is reported as 34.1 µM (HEK293-A; cell growth or viability, SRB).
With `CC(C)C[C@@H](NC(=O)CCNc1ccc([N+](=O)[O-])c2nonc12)C(=O)N[C@H](CC(C)C)C(=O)N[C@H](CC(C)C)C(=O)N[C@H](CC(C)C)C(=O)N[C@H](Cc1ccc(OP(=O)(O)O)cc1)C(=O)O` the nuclear concentration was 1680 ± 18 µM (SJSA-1; 200 µM, 4 h).
`C[C@@H](O)[C@H](NC(=O)[C@@H]1CCCN1C(=O)CNC(=O)[C@@H]1CC(=O)NCC(=O)N[C@H]2Cc3cn(c4ccccc34)-c3cc(ccc3O)C[C@H](NC2=O)C(=O)NCC(=O)N[C@@H](CO)C(=O)N[C@@H](CCC(N)=O)C(=O)N[C@@H](Cc2c[nH]c3ccccc23)C(=O)N1)C(=O)NCC(=O)N[C@@H](CCC(N)=O)C(=O)N[C@@H](CCCNC(=N)N)C(=O)N[C@@H](CC(=O)O)C(=O)O`: activity “inactive” (NCI60 panel; cell growth; concentration not given, single high dose).
